{"data": "Results gathered from unrelated publications", "note": "Compare with care: the assays were run in different laboratories.", "chain of UniProt O15075 (whole entry, looked up)": "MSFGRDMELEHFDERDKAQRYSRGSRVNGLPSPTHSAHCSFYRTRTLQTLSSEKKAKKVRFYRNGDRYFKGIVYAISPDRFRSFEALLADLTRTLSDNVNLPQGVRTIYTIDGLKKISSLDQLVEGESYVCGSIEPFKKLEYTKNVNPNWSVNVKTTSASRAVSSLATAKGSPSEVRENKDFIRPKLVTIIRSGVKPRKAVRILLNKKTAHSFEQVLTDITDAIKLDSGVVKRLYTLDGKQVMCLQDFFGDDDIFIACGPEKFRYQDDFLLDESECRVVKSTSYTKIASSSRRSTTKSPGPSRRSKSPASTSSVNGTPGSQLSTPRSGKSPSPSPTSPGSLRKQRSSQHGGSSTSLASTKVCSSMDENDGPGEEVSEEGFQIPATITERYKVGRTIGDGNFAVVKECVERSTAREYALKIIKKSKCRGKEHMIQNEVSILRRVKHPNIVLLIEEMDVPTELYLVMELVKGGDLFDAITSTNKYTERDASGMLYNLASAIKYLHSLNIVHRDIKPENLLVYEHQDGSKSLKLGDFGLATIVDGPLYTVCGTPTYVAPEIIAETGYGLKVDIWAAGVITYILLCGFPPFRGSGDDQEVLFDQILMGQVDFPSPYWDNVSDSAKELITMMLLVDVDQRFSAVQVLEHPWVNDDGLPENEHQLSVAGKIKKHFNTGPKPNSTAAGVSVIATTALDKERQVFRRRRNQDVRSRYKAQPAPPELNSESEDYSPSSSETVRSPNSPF", "chain of UniProt P16591 (whole entry, looked up)": "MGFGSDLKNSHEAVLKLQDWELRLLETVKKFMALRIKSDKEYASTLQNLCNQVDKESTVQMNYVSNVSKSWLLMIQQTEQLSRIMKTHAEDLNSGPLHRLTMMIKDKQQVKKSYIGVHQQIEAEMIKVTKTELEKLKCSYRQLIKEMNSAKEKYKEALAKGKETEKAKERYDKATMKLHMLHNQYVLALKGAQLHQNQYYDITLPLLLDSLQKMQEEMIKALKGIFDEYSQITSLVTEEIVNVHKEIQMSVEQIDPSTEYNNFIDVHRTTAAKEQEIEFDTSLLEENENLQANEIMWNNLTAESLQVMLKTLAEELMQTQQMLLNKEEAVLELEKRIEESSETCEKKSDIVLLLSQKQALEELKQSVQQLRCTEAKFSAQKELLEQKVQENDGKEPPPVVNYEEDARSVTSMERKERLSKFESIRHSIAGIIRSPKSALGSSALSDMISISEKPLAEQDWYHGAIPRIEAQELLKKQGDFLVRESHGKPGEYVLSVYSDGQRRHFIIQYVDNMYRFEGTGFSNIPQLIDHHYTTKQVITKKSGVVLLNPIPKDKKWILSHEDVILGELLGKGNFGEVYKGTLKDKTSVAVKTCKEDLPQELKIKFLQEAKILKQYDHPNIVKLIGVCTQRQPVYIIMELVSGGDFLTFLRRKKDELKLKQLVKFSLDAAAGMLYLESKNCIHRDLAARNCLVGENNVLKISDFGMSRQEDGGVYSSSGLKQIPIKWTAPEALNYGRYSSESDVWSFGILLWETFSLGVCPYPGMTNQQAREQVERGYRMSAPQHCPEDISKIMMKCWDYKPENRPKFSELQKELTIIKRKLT"}
{"Compound": "O=c1c2ccc(OCc3ccc(OC(F)(F)F)cc3)cc2[nH]c2cc(Cl)cc(F)c12", "test": "metabolic stability", "test system": "mouse, liver microsomes", "setting": "1 µM, pH 7.4", "quantity": "microsomal CLint", "result": "11.5 µL/min/mg"}
{"Compound": "c1ccc(-c2nc(N3CCc4ncccc4C3)c3ccccc3n2)nc1", "test": "metabolic stability", "test system": "mouse, liver microsomes", "quantity": "microsomal CLint", "result": "344 µL/min/mg"}
{"Compound": "O=c1c2cccc(Oc3ccc(OC(F)(F)F)cc3)c2[nH]c2cc(Cl)cc(F)c12", "test": "metabolic stability", "test system": "mouse, liver microsomes", "setting": "1 µM, pH 7.4", "quantity": "microsomal CLint", "result": "3.74 µL/min/mg"}
{"Compound": "N[C@@H](COCC(=O)N1CCC[C@H](C(=O)NCc2nc(-c3ccc(C(F)(F)F)cc3)cs2)C1)c1ccccc1", "test": "metabolic stability", "test system": "male Sprague-Dawley rat, liver microsomes", "setting": "0.5 µM", "quantity": "microsomal CLint", "result": "74 µL/min/mg"}
{"Compound": "Cn1cc(CNc2nc(-c3ccccn3)nc3ccccc23)cn1", "test": "metabolic stability", "test system": "mouse, liver microsomes", "quantity": "microsomal CLint", "result": "179 µL/min/mg"}
{"Compound": "O=c1c2ccc(Oc3ccccc3OC(F)(F)F)cc2[nH]c2cc(Cl)cc(F)c12", "test": "metabolic stability", "test system": "mouse, liver microsomes", "setting": "1 µM, pH 7.4", "quantity": "microsomal CLint", "result": "31.9 µL/min/mg"}
{"Compound": "COc1cc(-c2cncc3c2CN(C)Cc2cc(N4CCNCC4)ccc2-3)cc(OC)c1OC", "tested on": "DCLK1 (Homo sapiens, UniProt O15075)", "test": "enzyme activity, inhibitor", "setting": "1 µM", "quantity": "remaining activity", "result": "101%"}
{"Compound": "CCn1ncc2c([C@](O)(c3ccc(C(F)(F)F)c(Cl)c3)C3CC3)n(C)nc2c1=O", "test": "metabolic stability", "test system": "human, liver microsomes", "setting": "0.5 µM, pH 7.4", "quantity": "microsomal CLint", "result": "< 3 µL/min/mg"}
{"Compound": "c1ccc(C2CCN(c3nc(-c4cnn5c4CCCC5)nc4ccccc34)C2)nc1 (stereo not shown)", "test": "metabolic stability", "test system": "mouse, liver microsomes", "quantity": "microsomal CLint", "result": "666 µL/min/mg"}
{"Compound": "O=c1c2ccc(Oc3ccc(OC(F)(F)F)cc3)cc2[nH]c2ccc(F)c(Cl)c12", "test": "metabolic stability", "test system": "mouse, liver microsomes", "setting": "1 µM, pH 7.4", "quantity": "microsomal CLint", "result": "8.91 µL/min/mg"}
{"Compound": "CNc1ncc2c(/C=C/C(=O)N3CCC(OC)CC3)nn(Cc3cccc(C(F)(F)F)c3)c2n1", "tested on": "FER (Homo sapiens, UniProt P16591)", "test": "enzyme activity, inhibitor, radiometric", "setting": "1 µM", "quantity": "remaining activity", "result": "84%"}
{"Compound": "CNC(C)(C)COCC(=O)N1CCC[C@H](C(=O)NCc2nc(-c3ccc(C(F)(F)F)cc3)cs2)C1", "test": "metabolic stability", "test system": "male Sprague-Dawley rat, liver microsomes", "setting": "0.5 µM", "quantity": "microsomal CLint", "result": "10 µL/min/mg"}
{"Compound": "Cc1cccc(CNc2nc(-c3ccccn3)nc3ccccc23)n1", "test": "metabolic stability", "test system": "mouse, liver microsomes", "quantity": "microsomal CLint", "result": "151 µL/min/mg"}
{"Compound": "COCC(=O)N1CCC[C@H](C(=O)NCc2nc(-c3ccc(-c4ccccn4)cc3)cs2)C1", "test": "metabolic stability", "test system": "human, liver microsomes", "setting": "0.5 µM", "quantity": "microsomal CLint", "result": "37 µL/min/mg"}
{"Compound": "Cn1ccnc1CNc1nc(-c2ccccn2)nc2ccccc12", "test": "metabolic stability", "test system": "mouse, liver microsomes", "quantity": "microsomal CLint", "result": "62 µL/min/mg"}
{"Compound": "CC(C)(C)OC(=O)N1CCC(Oc2ccc3c(=O)c4c(Cl)cc(F)cc4[nH]c3c2)CC1", "test": "metabolic stability", "test system": "mouse, liver microsomes", "setting": "1 µM, pH 7.4", "quantity": "microsomal CLint", "result": "5.98 µL/min/mg"}
{"Compound": "CCOCC(=O)N1CCC[C@H](C(=O)NCc2nc(-c3ccc(C#N)cc3)cs2)C1", "test": "metabolic stability", "test system": "male Sprague-Dawley rat, liver microsomes", "setting": "0.5 µM", "quantity": "microsomal CLint", "result": "78 µL/min/mg"}
{"Compound": "Cn1cc(-c2nc(N3CCC(c4ccccn4)C3)c3ccccc3n2)cn1 (stereo not shown)", "test": "metabolic stability", "test system": "mouse, liver microsomes", "quantity": "microsomal CLint", "result": "88 µL/min/mg"}
{"Compound": "CN1CCC[C@H](OCC(=O)N2CCC[C@H](C(=O)NCc3nc(-c4ccc(C(F)(F)F)cc4)cs3)C2)C1", "test": "metabolic stability", "test system": "human, liver microsomes", "setting": "0.5 µM", "quantity": "microsomal CLint", "result": "43 µL/min/mg"}
{"Compound": "O=c1c2ccccc2[nH]c2cc(Oc3ccc(OC(F)(F)F)cc3)ccc12", "test": "metabolic stability", "test system": "mouse, liver microsomes", "setting": "1 µM, pH 7.4", "quantity": "microsomal CLint", "result": "53.5 µL/min/mg"}
{"Compound": "Cc1nn(C2CC2)c(=O)c2nn(C)c(Cc3ccc(C(F)(F)F)c(C#N)c3)c12", "test": "metabolic stability", "test system": "human, liver microsomes", "setting": "0.5 µM, pH 7.4", "quantity": "microsomal CLint", "result": "< 7 µL/min/mg"}
{"Compound": "O=C(NCc1nc(-c2ccccc2)cs1)[C@H]1CCCN(C(=O)COCCF)C1", "test": "metabolic stability", "test system": "human, liver microsomes", "setting": "0.5 µM", "quantity": "microsomal CLint", "result": "16 µL/min/mg"}
{"note": "Excerpt of the above:"}
{"Compound": "CNc1ncc2c(/C=C/C(=O)N3CCC(OC)CC3)nn(Cc3cccc(C(F)(F)F)c3)c2n1", "tested on": "FER (Homo sapiens, UniProt P16591)", "test": "enzyme activity, inhibitor, radiometric", "setting": "1 µM", "quantity": "remaining activity", "result": "84%"}
{"Compound": "CC(C)(C)OC(=O)N1CCC(Oc2ccc3c(=O)c4c(Cl)cc(F)cc4[nH]c3c2)CC1", "test": "metabolic stability", "test system": "mouse, liver microsomes", "setting": "1 µM, pH 7.4", "quantity": "microsomal CLint", "result": "5.98 µL/min/mg"}
{"Compound": "c1ccc(C2CCN(c3nc(-c4cnn5c4CCCC5)nc4ccccc34)C2)nc1 (stereo not shown)", "test": "metabolic stability", "test system": "mouse, liver microsomes", "quantity": "microsomal CLint", "result": "666 µL/min/mg"}
